Experimental data of several laboratories.
Each line is one published result; not all experiments were run side by side.
Cell line: SH-SY5Y

Structure (SMILES)	test	conditions	how to read	endpoint	result
CCOc1ccc(N2CC(O)(c3cccc([N+](=O)[O-])c3)[N+]3=C2CCCCC3)cc1 (centres unmarked)	cytoprotection, FDA/PI staining	added: 0.8 µM p-tau		EC50	0.18 µM
OCn1cnc2ccccc21	cell growth or viability, MTT	24 h		IC50	17.7 µM
Cc1c(COc2cc(OCc3cccc(C#N)c3)c(CNC(CO)(CO)CO)cc2Cl)cccc1-c1cccc(OCCCCCCC(=O)NO)c1	cell growth or viability, CCK-8	48 h		IC50	> 20 µM
COc1c(C)c(OS(=O)(=O)c2ccccc2)c(C)c2c1C(=O)CC(c1ccccc1)O2 (centres unmarked)	SRB		baseline: normal over SH-SY5Y IC50	selectivity index	> 1.12
Nc1ccccc1Nc1nc2ccccc2[nH]1	cytoprotection, FDA/PI staining	added: 0.8 µM p-tau		EC50	15.1 µM
COc1c(C)c(OC(=O)c2ccccc2)c(C)c(OC(=O)c2ccccc2)c1C(=O)/C=C/c1ccccc1	SRB		baseline: normal over SH-SY5Y IC50	selectivity index	1
Cc1c(COc2cc(OCc3cccc(C#N)c3)c(CNC(C)(CO)CO)cc2Cl)cccc1-c1cccc(OCCCCCC(=O)NO)c1	cell growth or viability, CCK-8	10 µM		inhibition	52.2%
O=S(=O)(c1ccc2c(c1)OCO2)n1cc(CCCCN2CCC(=C(c3ccc(F)c(F)c3)c3ccc(F)c(F)c3)CC2)nn1	live-cell imaging biosensor	10 µM, 2 h		intracellular FBP level	increased

For quick reference, copied from above:
Structure (SMILES)	test	conditions	how to read	endpoint	result
Cc1c(COc2cc(OCc3cccc(C#N)c3)c(CNC(C)(CO)CO)cc2Cl)cccc1-c1cccc(OCCCCCC(=O)NO)c1	cell growth or viability, CCK-8	10 µM		inhibition	52.2%
